Published values of several laboratories.
Every numbered part comes from another study and shows a few of its results, in no order. Several values in a cell are separate wells, animals, samples, runs or records.
UniProt P31645, sequence (whole entry, looked up): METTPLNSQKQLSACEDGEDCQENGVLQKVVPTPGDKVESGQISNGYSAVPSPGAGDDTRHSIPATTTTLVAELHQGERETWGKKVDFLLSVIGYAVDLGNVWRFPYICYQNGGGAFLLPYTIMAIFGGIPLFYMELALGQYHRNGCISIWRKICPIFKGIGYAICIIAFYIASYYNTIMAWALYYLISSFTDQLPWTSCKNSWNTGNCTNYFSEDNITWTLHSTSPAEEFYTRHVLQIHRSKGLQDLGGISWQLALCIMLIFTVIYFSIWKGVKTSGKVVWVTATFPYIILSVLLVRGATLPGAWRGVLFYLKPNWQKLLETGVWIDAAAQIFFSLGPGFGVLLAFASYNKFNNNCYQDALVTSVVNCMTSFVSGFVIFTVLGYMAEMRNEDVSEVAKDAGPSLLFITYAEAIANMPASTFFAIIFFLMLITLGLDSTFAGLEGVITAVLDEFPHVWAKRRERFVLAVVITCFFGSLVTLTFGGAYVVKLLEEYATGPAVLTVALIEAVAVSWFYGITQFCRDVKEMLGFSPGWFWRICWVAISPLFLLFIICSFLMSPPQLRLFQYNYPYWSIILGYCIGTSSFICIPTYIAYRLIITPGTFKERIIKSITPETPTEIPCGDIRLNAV

Series 1 — medium: plasma; route: oral
SMILES: CNC(=O)c1ccc(-c2cnn3ccc(C(=O)N(C)c4ccc(Cl)c(C(=O)OC)c4)cc23)cc1
species | dose | time | setting | Cmax
female C57BL/6 IFN-γ knockout mice | 10 mg/kg |  |  | 6.42 nM and 12.2 nM and 6.58 nM
female C57BL/6 mouse | 10 mg/kg/day |  |  | 4 ng/mL
Wistar rat, both sexes | 50 mg/kg/day | 2 weeks | GLP toxicology study | 1.02 ng/mL

Further values, each from its own experiment
SMILES | tested on | test | test system | conditions | scale | endpoint | value
COc1cc(C(=O)OCCCN2CCCN(CCCOC(=O)c3cc(OC)c(OC)c(OC)c3)CC2)cc(OC)c1OC |  |  | CD-1 mice, male, brain | subcutaneous, 30 mg/kg, 0.1667 h |  | concentration | 166 ng/mL
Oc1ncnc2[nH]ncc12 | HEK-293T | pseudovirus infection, FDA-approved drug library counter-screen | VSV pseudotyped with VSV-G | 10 µM, 16 h | reference: vehicle-treated | GFP-positive cells | 107%
O=C1NC(c2ccccn2)Sc2ccccc21 (centres unmarked) | SLC6A4 (Homo sapiens, UniProt P31645) | ligand displacement |  | 10 µM |  | inhibition | -11.2%
N#Cc1ccc(Oc2ncccc2C#N)cc1Cl |  |  | human, microsomes or S9 | 2 µM, 0.5 h |  | remaining compound | > 99%
C=CC[C@@H]1/C=C(\C)C[C@H](C)C[C@H](OC)[C@H]2O[C@@](O)(C(=O)C(=O)N3CCCC[C@H]3C(=O)O[C@H](/C(C)=C/[C@@H]3CC[C@@H](O)[C@H](OC)C3)[C@H](C)[C@@H](O)CC1=O)[C@H](C)C[C@@H]2OC | HEK-293T | pseudovirus infection, FDA-approved drug library counter-screen | VSV pseudotyped with VSV-G | 10 µM, 16 h | reference: vehicle-treated | GFP-positive cells | 139%
